Published values from different studies.
Lines come from different studies, so protocols differ. ± gives the spread as reported.
Proteasome subunit beta type-9: Proteasome subunit beta type-9 (Homo sapiens, UniProt P28065)
Sequence of UniProt P28065 (whole entry, looked up): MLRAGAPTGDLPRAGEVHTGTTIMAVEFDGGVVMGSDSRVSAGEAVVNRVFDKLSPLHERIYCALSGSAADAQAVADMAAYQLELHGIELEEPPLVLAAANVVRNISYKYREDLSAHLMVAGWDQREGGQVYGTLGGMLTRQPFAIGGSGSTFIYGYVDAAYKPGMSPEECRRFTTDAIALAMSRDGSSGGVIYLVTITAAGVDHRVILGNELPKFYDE
CELF1 del215-384: CUGBP Elav-like family member 1 (CELF1, Homo sapiens, UniProt Q92879, del215-384)
Sequence of UniProt Q92879 (whole entry, unmodified, looked up): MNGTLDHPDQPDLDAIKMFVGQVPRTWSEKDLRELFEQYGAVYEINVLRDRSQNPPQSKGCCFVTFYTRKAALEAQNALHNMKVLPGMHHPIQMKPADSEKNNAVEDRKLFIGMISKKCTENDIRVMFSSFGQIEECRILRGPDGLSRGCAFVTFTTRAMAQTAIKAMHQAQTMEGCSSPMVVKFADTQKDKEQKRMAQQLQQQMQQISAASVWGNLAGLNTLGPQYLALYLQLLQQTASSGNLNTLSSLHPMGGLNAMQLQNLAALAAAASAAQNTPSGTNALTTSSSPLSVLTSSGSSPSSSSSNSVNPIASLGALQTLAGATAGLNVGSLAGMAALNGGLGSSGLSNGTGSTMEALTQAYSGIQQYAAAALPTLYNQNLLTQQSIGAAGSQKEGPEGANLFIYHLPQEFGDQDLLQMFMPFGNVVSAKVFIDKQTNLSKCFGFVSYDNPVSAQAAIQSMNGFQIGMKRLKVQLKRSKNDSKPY
CXCR4: C-X-C chemokine receptor type 4 (CXCR4, Homo sapiens, UniProt P61073)
Sequence of UniProt P61073 (whole entry, looked up): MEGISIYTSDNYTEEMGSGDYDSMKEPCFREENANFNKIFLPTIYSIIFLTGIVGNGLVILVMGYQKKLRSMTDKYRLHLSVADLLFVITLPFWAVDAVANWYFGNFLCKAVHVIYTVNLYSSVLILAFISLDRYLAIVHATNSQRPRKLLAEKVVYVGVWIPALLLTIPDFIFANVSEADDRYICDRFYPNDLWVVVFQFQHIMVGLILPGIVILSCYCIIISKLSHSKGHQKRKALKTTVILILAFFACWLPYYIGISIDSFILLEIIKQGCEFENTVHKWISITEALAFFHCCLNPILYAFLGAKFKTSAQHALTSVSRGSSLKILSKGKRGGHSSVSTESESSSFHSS
Methionyl-tRNA synthetase, putative: Methionyl-tRNA synthetase, putative (Trypanosoma brucei brucei, UniProt Q38C91)
CA9: Carbonic anhydrase 9 (CA9, Homo sapiens, UniProt Q16790)
Thymocyte selection-associated high mobility group box protein TOX with KAT7: Thymocyte selection-associated high mobility group box protein TOX, with KAT7 (Homo sapiens, UniProt O94900)
Sequence of UniProt O94900 (whole entry, looked up): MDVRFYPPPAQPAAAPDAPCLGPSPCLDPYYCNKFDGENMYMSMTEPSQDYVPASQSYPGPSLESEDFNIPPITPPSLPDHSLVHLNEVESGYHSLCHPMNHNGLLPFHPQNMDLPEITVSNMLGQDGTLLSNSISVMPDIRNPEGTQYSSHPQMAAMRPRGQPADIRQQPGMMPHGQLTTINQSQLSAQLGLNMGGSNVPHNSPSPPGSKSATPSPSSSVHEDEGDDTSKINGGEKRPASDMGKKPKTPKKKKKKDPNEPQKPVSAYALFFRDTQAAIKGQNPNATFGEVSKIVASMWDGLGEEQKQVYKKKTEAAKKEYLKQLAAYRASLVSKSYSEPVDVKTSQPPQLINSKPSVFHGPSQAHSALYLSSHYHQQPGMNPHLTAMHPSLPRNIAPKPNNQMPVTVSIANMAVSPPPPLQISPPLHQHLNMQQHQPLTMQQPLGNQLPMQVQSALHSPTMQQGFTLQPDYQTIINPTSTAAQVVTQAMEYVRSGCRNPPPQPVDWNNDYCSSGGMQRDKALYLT
BTK: Tyrosine-protein kinase BTK (BTK, Homo sapiens, UniProt Q06187)
Sequence of UniProt Q06187 (whole entry, looked up): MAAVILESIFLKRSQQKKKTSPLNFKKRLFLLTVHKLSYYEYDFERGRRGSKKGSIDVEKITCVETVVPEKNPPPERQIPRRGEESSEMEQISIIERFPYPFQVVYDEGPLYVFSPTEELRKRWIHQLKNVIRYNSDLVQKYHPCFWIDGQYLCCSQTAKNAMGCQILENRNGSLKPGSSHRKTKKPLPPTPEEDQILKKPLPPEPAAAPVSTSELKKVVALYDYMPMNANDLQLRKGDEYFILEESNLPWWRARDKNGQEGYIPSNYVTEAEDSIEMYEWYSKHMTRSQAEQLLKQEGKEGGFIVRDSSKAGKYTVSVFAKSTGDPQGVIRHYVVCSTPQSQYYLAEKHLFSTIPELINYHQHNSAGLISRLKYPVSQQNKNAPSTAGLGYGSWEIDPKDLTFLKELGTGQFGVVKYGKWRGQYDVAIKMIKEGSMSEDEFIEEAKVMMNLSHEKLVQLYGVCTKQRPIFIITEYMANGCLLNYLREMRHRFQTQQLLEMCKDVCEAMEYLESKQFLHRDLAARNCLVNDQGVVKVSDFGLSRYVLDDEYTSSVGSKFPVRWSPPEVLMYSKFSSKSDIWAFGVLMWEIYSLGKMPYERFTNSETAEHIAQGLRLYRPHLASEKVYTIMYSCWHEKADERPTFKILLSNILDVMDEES
Integrin alpha-5/beta-1: Integrin alpha-5/beta-1 (Homo sapiens, UniProt P05556+P08648)
Sequence of UniProt P05556 (whole entry, looked up): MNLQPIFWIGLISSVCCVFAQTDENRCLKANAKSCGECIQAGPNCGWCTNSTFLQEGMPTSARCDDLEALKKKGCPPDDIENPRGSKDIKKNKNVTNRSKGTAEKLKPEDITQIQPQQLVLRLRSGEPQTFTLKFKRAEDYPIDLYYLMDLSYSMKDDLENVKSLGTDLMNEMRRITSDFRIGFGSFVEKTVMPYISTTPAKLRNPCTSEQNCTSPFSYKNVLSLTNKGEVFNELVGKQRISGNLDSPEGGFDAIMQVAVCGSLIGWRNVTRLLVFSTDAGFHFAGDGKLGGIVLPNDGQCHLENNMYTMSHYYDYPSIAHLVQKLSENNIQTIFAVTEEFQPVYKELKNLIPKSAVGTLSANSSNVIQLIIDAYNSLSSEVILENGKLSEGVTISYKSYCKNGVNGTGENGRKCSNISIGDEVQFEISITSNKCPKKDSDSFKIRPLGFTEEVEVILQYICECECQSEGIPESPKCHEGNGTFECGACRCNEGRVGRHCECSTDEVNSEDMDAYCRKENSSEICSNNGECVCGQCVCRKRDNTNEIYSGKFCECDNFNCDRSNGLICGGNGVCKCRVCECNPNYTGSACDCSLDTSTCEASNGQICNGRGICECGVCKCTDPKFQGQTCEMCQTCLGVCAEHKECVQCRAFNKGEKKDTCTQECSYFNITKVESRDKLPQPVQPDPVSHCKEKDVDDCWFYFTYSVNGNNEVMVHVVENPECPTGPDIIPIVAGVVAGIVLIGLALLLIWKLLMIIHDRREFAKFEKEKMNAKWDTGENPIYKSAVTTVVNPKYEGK
Sequence of UniProt P08648 (whole entry, looked up): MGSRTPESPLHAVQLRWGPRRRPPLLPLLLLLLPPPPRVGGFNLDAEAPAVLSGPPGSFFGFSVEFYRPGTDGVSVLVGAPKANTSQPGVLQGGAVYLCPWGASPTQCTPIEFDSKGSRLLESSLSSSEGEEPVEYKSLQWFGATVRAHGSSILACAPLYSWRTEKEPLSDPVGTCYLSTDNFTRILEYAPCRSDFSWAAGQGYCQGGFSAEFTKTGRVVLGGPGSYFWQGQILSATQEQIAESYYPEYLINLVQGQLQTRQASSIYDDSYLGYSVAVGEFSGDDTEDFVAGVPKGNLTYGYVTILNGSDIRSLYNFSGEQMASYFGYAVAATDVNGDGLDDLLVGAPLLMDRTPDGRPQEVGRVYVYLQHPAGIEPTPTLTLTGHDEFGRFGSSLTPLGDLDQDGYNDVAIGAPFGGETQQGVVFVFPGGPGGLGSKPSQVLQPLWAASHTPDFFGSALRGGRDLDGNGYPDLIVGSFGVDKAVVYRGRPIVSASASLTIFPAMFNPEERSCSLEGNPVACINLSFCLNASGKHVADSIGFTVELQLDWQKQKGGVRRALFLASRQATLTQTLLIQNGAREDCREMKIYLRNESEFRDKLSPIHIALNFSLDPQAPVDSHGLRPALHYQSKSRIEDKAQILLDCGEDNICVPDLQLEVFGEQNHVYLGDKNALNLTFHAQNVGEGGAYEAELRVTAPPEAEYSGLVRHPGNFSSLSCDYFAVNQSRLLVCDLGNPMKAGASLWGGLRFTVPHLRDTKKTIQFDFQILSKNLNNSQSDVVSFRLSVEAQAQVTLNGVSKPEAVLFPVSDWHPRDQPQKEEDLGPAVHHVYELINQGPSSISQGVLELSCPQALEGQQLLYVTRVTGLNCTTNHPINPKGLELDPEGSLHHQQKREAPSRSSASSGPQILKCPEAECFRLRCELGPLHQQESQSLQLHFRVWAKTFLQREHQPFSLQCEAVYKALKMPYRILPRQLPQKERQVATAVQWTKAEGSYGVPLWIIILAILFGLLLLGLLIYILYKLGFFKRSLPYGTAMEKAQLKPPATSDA
CD274 with PD-1: Programmed cell death 1 ligand 1, with PD-1 (CD274, Homo sapiens, UniProt Q9NZQ7)
Sequence of UniProt Q9NZQ7 (whole entry, looked up): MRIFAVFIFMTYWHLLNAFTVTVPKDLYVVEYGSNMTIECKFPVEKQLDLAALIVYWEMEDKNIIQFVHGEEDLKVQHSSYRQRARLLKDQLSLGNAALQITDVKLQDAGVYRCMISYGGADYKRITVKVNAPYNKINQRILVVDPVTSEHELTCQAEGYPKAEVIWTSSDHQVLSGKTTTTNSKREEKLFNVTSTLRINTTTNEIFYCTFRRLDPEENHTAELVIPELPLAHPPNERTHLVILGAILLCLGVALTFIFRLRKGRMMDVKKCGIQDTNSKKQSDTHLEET
Sequence of UniProt P97583 (whole entry, looked up): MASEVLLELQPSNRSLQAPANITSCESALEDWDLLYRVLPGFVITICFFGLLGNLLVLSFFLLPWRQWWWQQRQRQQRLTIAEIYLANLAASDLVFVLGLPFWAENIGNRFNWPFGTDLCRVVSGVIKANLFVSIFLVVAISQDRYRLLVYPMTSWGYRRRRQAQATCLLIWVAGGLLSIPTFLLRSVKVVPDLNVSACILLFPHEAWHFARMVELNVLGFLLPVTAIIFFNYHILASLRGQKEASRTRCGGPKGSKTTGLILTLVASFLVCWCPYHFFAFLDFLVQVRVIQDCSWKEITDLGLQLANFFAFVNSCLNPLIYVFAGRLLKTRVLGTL
Sequence of UniProt P14555 (whole entry, looked up): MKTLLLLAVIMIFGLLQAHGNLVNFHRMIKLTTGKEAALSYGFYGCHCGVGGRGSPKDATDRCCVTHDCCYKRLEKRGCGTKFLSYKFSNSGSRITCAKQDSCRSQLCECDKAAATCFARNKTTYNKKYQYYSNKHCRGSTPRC
Sequence of UniProt A3M139 (whole entry, looked up): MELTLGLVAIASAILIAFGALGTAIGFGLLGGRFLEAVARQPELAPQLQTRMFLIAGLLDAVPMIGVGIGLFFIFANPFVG

With `Cc1cc(NC2CCN(C)CC2)ccc1-c1cc2c(N3CCC[C@H](C(=O)NCc4ccc(OC(F)(F)F)cc4)C3)ncnc2[nH]1` the IC50 was 1530 nM (MAP4K2 (Homo sapiens, UniProt Q12851); enzyme activity, inhibitor, mobility shift).
With `Cc1nn(-c2cccc(N)c2)c(=O)c2cnc(Nc3ccc(N4CCNCC4)cc3)nc12` the IC50 was over 10000 nM (PRKACA (Homo sapiens, UniProt P17612); enzyme activity, inhibitor).
`COc1cc(F)c(-c2cc(Cn3cnc4c(N)ncnc43)c(N3CCC[C@](N)([C@H](O)C(F)F)C3)cn2)cc1F` has an IC50 of over 10000 nM (SETDB1 (Homo sapiens, UniProt Q15047); enzyme activity, inhibitor).
`CC[C@H](C)[C@H](NC(=O)[C@H](CCCNC(=N)N)NC(=O)[C@@H]1CCCN1C(=O)[C@H](CCCCN)NC(=O)[C@@H](N)CC(C)C)C(=O)O` has an IC50 of 8100 nM (B1 bradykinin receptor (Rattus norvegicus, UniProt P97583); ligand displacement, radioligand; cell membranes).
For `CC(C)C[C@H](NC(=O)[C@H](Cc1ccc(CN)cc1)NC(=O)[C@H](Cc1ccccc1)N=[N+]=[N-])C(=O)N[C@@H](CC1CCC(C2CCCCC2)CC1)C(=O)[C@@]1(C)CO1` (stereo partly shown), the IC50 was over 10000 nM (Proteasome subunit beta type-9; competitive ABPP; Raji cell lysate).
`Nc1nc2nc[nH]c2c(=S)[nH]1` gave an IC50 of 18700 ± 5180 nM (CELF1 del215-384; CELF1-RNA binding, inhibitor, fluorescence polarization; 20 nM CELF1, added: 10 nM RNA).
For `CN1C(=O)[C@@H](Cc2ccc(O)cc2)NC(=O)CNC(=O)[C@H](Cc2ccc3ccccc3c2)NC(=O)[C@H](CCCNC(=N)N)NC(=O)[C@H]1CCCNC(=O)c1ccc(CNC(=O)CN2CCN(CC(=O)O)CCN(CC(=O)O)CCN(CC(=O)O)CC2)cc1`, the IC50 was 150 nM (CXCR4).
The IC50 of `Cc1ccc2nc(C)n(/N=C/c3ccc(C(=O)O)cc3)c(=O)c2c1` is reported as 101000 ± 6160 nM (Phospholipase A2, membrane associated (Homo sapiens, UniProt P14555); enzyme activity, inhibitor, colorimetric).
`FC(F)(CNCc1cc(Cl)cc(Cl)c1)CNc1nc2cccnc2[nH]1` has an IC50 of under 10 nM (Methionyl-tRNA synthetase, putative; enzyme activity, inhibitor).
`CC1Cc2ccccc2N1Cc1ccoc1C(=O)Nc1ccc(S(N)(=O)=O)cc1` (stereo not shown) gave an IC50 of 12 nM (CA9; enzyme activity, inhibitor).
The IC50 of `N#Cc1c(N)nc2c(c1-c1ccc(CO)o1)Cc1c(O)cccc1-2` is reported as over 10000 nM (Thymocyte selection-associated high mobility group box protein TOX with KAT7; TOX-KAT7 binding, inhibitor, ELISA; no inhibition at 10 µM).
The IC50 of `OB1c2sccc2C=NN1Cc1ccccc1` is reported as over 100000 nM (Prothrombin (F2, Homo sapiens, UniProt P00734); enzyme activity, inhibitor).
For `Cn1c(S)nnc1-c1ccc(F)cc1`, the IC50 was 710 ± 30 nM (CELF1 del215-384; CELF1-RNA binding, inhibitor, fluorescence polarization; CELF1 20 nM, added: RNA 10 nM).
`CCCCCCCCCCCC=O` gave an IC50 of 6960 nM (uncharacterized protein (Spodoptera exigua, UniProt F1CEY0); binding, fluorescence competitive binding; added: 1-NPN 2.0 µM).
The IC50 of `CC(C)C[C@H](NC(=O)[C@H](Cc1ccc(CN)cc1)NC(=O)[C@H](Cc1ccccc1)N=[N+]=[N-])C(=O)N[C@H](C(=O)[C@@]1(C)CO1)C1CCCCC1` is reported as over 10000 nM (Proteasome subunit beta type-9; competitive ABPP; Raji cell lysate).
The IC50 of `S=C(NCCCN1CCN(CCCNC(=S)NCc2ccccc2)CC1)NCc1ccccc1` is reported as 20000 nM (CXCR4; β-arrestin recruitment, antagonist).
For `N#Cc1ccc(NC(=O)Nc2ccccc2O)cc1`, the IC50 was 2100 nM (SRPK3 (Homo sapiens, UniProt Q9UPE1); enzyme activity, inhibitor, FRET).
`Fc1ccc(Nc2nc(NC3CCCCC3)c3cc(C(F)(F)F)ccc3n2)cc1F` has an IC50 of 100 nM (ADRB2 (Homo sapiens, UniProt P07550, T164V); β-arrestin2 recruitment, antagonist, BRET; HEK293; mutant T164V, added: isoprenaline 1 µM).
`COc1cc2c(cc1NS(=O)(=O)c1ccc(Br)cc1C)n(C)c(=O)n2C` gave an IC50 of 6490 nM (Transcription initiation factor TFIID subunit 1, BD2 (TAF1, Homo sapiens, UniProt P21675); inhibitor).
For `CCN(CC)CC(=O)Nc1cccc(-n2cc(-c3ccc4ccc(-c5cn(-c6cccc(NC(=O)CN(CC)CC)c6)nn5)cc4c3)nn2)c1`, the IC50 was over 10000 nM (BTK; enzyme activity, inhibitor).
With `O=C1C(Cl)=C(NCCN2CCOCC2)C(=O)c2ncccc21` the IC50 was 1300 nM (CARM1 (Homo sapiens, UniProt Q86X55); enzyme activity, inhibitor).
`O=C1c2cccc3cccc(c23)C(=O)N1Cc1nc2ccccc2[nH]1` has an IC50 of 36.7 nM (KEAP1 (Homo sapiens, UniProt Q14145); enzyme activity, inhibitor, fluorescence).
`N#Cc1c(N)nc2c(c1-c1ccc(CO)o1)Cc1cccc(O)c1-2` gave an IC50 of 6000 nM (Thymocyte selection-associated high mobility group box protein TOX with KAT7; TOX-KAT7 binding, inhibitor, ELISA; no inhibition at 10 µM).
For `N#C/N=C(\N)Nc1cccc(C(=O)NCC(=O)NC[C@H](NC(=O)c2c(Cl)cc(-c3ccccc3)cc2Cl)C(=O)O)c1`, the IC50 was 50.1 nM (Integrin alpha-5/beta-1; cell adhesion, inhibitor; SW480; added: fibronectin 0.3 µg/mL).
`Cc1c(COc2cc(OCc3cccc(C#N)c3)c(CN3CCCC[C@H]3C(=O)O)cc2Cl)cccc1-c1cccc(OCCCCCCC(=O)NO)c1` gave an IC50 of 456 nM (CD274 with PD-1; PD-1/PD-L1 binding, inhibitor, HTRF).
`N=C(N)Nc1cccc(C(=O)NCC(=O)NC[C@H](NC(=O)c2c(Cl)cc(-c3ccc(Cl)c(F)c3)cc2Cl)C(=O)O)c1` has an IC50 of 20 nM (Integrin alpha-5/beta-1; cell adhesion, inhibitor; SW480; added: fibronectin 0.3 µg/mL).
With `CCOc1cc(CN2CCC3(CC2)CN(c2ccc(C(=O)O)cc2)C(=O)N3)c(C2CC2)cc1C` the IC50 was 0.288 nM (SSTR5 (Homo sapiens, UniProt P35346, W190A); cAMP level, agonist, GloSensor; AD293; W190A mutant, added: CST17 EC80 and forskolin).
`CC(C)C[C@H](NC(=O)[C@H](Cc1ccc(CN)cc1)NC(=O)[C@H](Cc1ccccc1)N=[N+]=[N-])C(=O)N[C@@H](CCC1CCCCC1)C(=O)[C@@]1(C)CO1` has an IC50 of over 10000 nM (Proteasome subunit beta type-9; competitive ABPP; Raji cell lysate).
`Cc1nn(-c2ccc(S(N)(=O)=O)cc2)c(C)c1CCC(=O)Nc1ccc(-c2ccc[nH]2)cc1` has an IC50 of 15.1 nM (CA9; enzyme activity, inhibitor).
`CC(=O)OC1CCC2(C)C(CCC3(C)C2CC=C2C4C(C)C(C)CCC4(C(=O)O)CCC23C)C1(C)C` (stereo not shown) has an IC50 of over 100000 nM (UGT1A9 (Homo sapiens, UniProt O60656); enzyme activity, inhibitor).
With `Cc1cc(C(=O)Nc2nc3cccc(C)c3n2[C@H]2CCCCN(C(=O)/C=C/CN(C)C)C2)ccn1` the IC50 was 2.25 nM (BTK; enzyme activity, inhibitor, HTRF; mean value).
The IC50 of `CO[C@@H]1[C@@H](OC(=O)c2ccc(C)[nH]2)[C@@H](O)[C@H](Oc2ccc3c(O)c(NC(=O)c4c[nH]c(C(=O)Nc5c(O)c6ccc(O[C@@H]7OC(C)(C)[C@H](OC)[C@@H](OC(=O)c8ccc(C)[nH]8)[C@H]7O)c(C)c6oc5=O)c4C)c(=O)oc3c2C)OC1(C)C` is reported as about 85000 nM (human CMG helicase; ATP hydrolysis, inhibitor, Transcreener ADP2 FP; added: 0.5 mM ATP).
`Sc1nc[nH]n1` has an IC50 of 980 ± 110 nM (CELF1 del215-384; CELF1-RNA binding, inhibitor, fluorescence polarization; CELF1 20 nM, added: RNA 10 nM).
For `Fc1ccc2nc(NCCCN[C@@H]3CCOc4c(Cl)cc(Cl)cc43)[nH]c2n1`, the IC50 was under 10 nM (Methionyl-tRNA synthetase, putative; enzyme activity, inhibitor).
`CC(C)C[C@H](NC(=O)[C@H](Cc1ccc(CN)cc1)NC(=O)[C@H](Cc1ccccc1)N=[N+]=[N-])C(=O)N[C@@H](CC1CCC(C)CC1)C(=O)[C@@]1(C)CO1` (stereo partly shown) has an IC50 of 133 nM (Proteasome subunit beta type-9; competitive ABPP; Raji cell lysate).
The IC50 of `CCCCCCCCN(Cc1ccc(CNC(=O)OCCOC23CC4CC(C2)CC(C(N)C(=O)N2C(C#N)CC5CC52)(C4)C3)cc1)CC(O)C(O)C(O)C(O)CO` (stereo not shown) is reported as 18 nM (DPP4 (Homo sapiens, UniProt P27487); enzyme activity, inhibitor; with preincubation).
The IC50 of `C#CCNC(=O)c1ccc(S(=O)(=O)N[C@@H](CCCCNC(C)=S)C(=O)N[C@@H](CCCNC(=N)N)C(=O)N[C@@H](CC2CCCCC2)C(N)=O)cc1` is reported as 250 nM (SIRT1 (Homo sapiens, UniProt Q96EB6); enzyme activity, inhibitor, fluorescence).
With `O=C(NC1CCC2(CCCC2)CC1)c1ccc(-c2ccccc2)cc1` the IC50 was 106 nM (TRPM8 (Homo sapiens, UniProt Q7Z2W7); ion current, antagonist, patch clamp).
With `C[S+]([O-])CCC/C(=N\OS(=O)(=O)O)S[C@@H]1O[C@H](CO)[C@@H](O)[C@H](O)[C@H]1O` (stereo partly shown) the IC50 was 9170 nM (PTPN1 (Homo sapiens, UniProt P18031); enzyme activity, inhibitor, absorbance).
The IC50 of `CCN1CCC(CCNCc2cc3ccccc3nc2SCc2ccccc2)CC1` is reported as 858 nM (atpE/atpB (Acinetobacter baumannii, UniProt A3M139+B2I0Z6); ATP synthesis, inhibitor; Acinetobacter baumannii inverted membrane vesicles; added: NADH).
For `CCn1nc(Cl)c2c1-c1cnc(N)c(c1)O[C@H](C)c1cc(F)ccc1-c1nn(C)cc1C2`, the IC50 was 460 nM (TEK (Homo sapiens, UniProt Q02763); enzyme activity, inhibitor, radiometric).
With `Nc1ncc2c(n1)-c1c([nH]c3ccc(C4=CCOCC4)cc13)CCC2` the IC50 was 6100 nM (DSTYK (Homo sapiens, UniProt Q6XUX3); enzyme activity, inhibitor, radiometric).
`C[C@@H]1Cc2c([nH]c3ccccc23)[C@@H](c2c(F)cc(/C=C/C(=O)O)cc2F)N1C12CC(C1)C2` has an IC50 of over 10000 nM (NR3C2 (Homo sapiens, UniProt P08235); MR receptor activity, agonist, cell-based).
With `COCCN(C)CC(=O)NC(Cc1ccc(-c2ccccc2)cc1)B(O)O` (stereo not shown) the IC50 was over 10000 nM (20S proteasome beta subunits, part β2 subunit (Plasmodium falciparum, UniProt Q8I261+Q8I6T3); β2 activity, inhibitor; added: Ac-WLR-AMC).
For `O=C(CNC(=O)c1cccc(NC2=NCCCN2)c1)NC[C@H](NC(=O)c1c(Cl)cc(-c2ccccc2)cc1Cl)C(=O)O`, the IC50 was 5.01 nM (Integrin alpha-5/beta-1; cell adhesion, inhibitor; SW480; added: fibronectin 0.3 µg/mL).
For `Cc1c(COc2cc(OCc3cccc(C#N)c3)c(CNC(C)(CO)CO)cc2Cl)cccc1-c1cccc(OCCCCCC(=O)NO)c1`, the IC50 was 20.4 nM (CD274 with PD-1; PD-1/PD-L1 binding, inhibitor, HTRF).
